Measured values of several laboratories.
Every numbered part comes from another study and shows a few of its results, in no order.

Set 1 — method: RNA Bind-n-Seq; form: RNA; matrix: in vitro; tested at: 200 nM; setting: whole 134-nt RNA, ends assumed; with: 150 mM KCl; reference: input library; reading: higher = stronger binding
Target: Fragile X messenger ribonucleoprotein 1, C-terminal low-complexity region (Fmr1, Mus musculus, UniProt P35922)
`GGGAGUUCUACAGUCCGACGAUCGAAAUUGAACCAGCAGCGAUGAAAGCAGCAGCUGCUGCCCCUGCCUCAGAGGAUGAGGACGAUGAGGAUGACGAAGAUGAUGAGGAUGACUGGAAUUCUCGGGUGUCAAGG` gave a log2 enrichment of -0.846.
`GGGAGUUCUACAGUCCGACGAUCACCAUGCAGGUGGGCAUCUUUGGGAAGUGGGGCAAGGGGGGGAUAGGGAAAAGGGUAACACUUUGGGAACAGGUGGUCCCAGGUCGUUUCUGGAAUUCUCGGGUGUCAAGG` has a log2 enrichment of 0.687.
The log2 enrichment of `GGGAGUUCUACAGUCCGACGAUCUGGCCCUAGUGGCAUGCGGGGAGGAAGAGGUGGCCUCAUGGAUCGUGGUGGUCCCGGUGGAAUGUUCAGAGGUGGCCGUGGUGGAGACAGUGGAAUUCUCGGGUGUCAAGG` is reported as 0.0389.
For `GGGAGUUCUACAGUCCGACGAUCCAAGUCCUGUGCUACACAUCGUAUGUACCGAAUCGGGUGGGUUUGGGAAAAAGGGAAAGUAUUAUGUUACGCCGUUCGGAUCUGCACUUCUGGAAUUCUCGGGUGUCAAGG`, the log2 enrichment was 1.04.
`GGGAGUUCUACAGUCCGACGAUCUGGGAGGUGGAAUUUGUUUAUUUUUUUAGCUCAUUUCCAGGGGUGGGAAUUUUUUUUUAAUAUGUGUCAUGAAUAAAGUUGUUUUUGAAAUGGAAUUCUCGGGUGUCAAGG` gave a log2 enrichment of -0.00928.
For `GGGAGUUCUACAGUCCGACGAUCCUCAAGUCCUGUGCUACACAUCGUAUGUACCGAAUCGGUUUGGAGGUUUUUGGAAAGUAUUAUGUUACGCCGUUCGGAUCUGCACUUCCAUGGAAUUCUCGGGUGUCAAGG`, the log2 enrichment was -0.0854.
`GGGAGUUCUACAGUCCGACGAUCGCUGUGACCCCAACGCCGGUGCCCGUGGUCGGGAGCCAGAUGACCAGACAAGCCCGGCGCCUCUACGUGGGCAACAUCCCCUUUGGCAUCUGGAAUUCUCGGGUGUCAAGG` gave a log2 enrichment of -0.174.
With `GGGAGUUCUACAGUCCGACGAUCCUGUGCUACACAUCGUAUGUACCGAAUCGGAAAAAAAGGAAAAAAAGGGGAAAAAAAGGGGAAAGUAUUAUGUUACGCCGUUCGGAUCUGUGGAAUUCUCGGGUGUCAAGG` the log2 enrichment was -0.827.
`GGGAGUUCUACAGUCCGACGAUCUGGGAGGUGGAUUUUGUUUAUUUUUUUAGCUCAUUUCCAGGGGUGGGAAUUUUUUUUUAAUACGUGUCAUGAAUAAAGUUGUUUUUGAAAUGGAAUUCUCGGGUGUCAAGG` gave a log2 enrichment of 0.252.

Set 2 — method: protein binding microarray; form: double-stranded DNA, one strand shown; matrix: in vitro; tested at: not given; reference: not given; reading: higher = stronger binding
Target: Histone acetyltransferase KAT6A, winged helix 2, GST fusion (KAT6A, Homo sapiens, UniProt Q92794, residues 85-181)
Setting: 8-mer, flanks averaged, mean of 2 arrays, mostly near background
Construct (chain): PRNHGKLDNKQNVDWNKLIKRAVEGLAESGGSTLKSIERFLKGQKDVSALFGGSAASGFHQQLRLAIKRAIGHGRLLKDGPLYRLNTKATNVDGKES
The E-score of `CTCTGGTC` is reported as -0.0487.
For `CAGATGGC`, the E-score was 0.11.
For `ACTGGGTC`, the E-score was -0.115.
For `GACTACAC`, the E-score was -0.178.
The E-score of `ACTCACCC` is reported as 0.00555.
With `AACAATGG` the E-score was -0.0478.

Set 3 — method: universal PBM; form: double-stranded DNA, one strand shown; matrix: in vitro; tested at: 600 nM; reading: higher = stronger binding
Target: Sal-like protein 4, full length isoform A (SALL4, Homo sapiens, UniProt Q9UJQ4, residues 1-1053)
Chain of UniProt Q9UJQ4 (whole entry, looked up): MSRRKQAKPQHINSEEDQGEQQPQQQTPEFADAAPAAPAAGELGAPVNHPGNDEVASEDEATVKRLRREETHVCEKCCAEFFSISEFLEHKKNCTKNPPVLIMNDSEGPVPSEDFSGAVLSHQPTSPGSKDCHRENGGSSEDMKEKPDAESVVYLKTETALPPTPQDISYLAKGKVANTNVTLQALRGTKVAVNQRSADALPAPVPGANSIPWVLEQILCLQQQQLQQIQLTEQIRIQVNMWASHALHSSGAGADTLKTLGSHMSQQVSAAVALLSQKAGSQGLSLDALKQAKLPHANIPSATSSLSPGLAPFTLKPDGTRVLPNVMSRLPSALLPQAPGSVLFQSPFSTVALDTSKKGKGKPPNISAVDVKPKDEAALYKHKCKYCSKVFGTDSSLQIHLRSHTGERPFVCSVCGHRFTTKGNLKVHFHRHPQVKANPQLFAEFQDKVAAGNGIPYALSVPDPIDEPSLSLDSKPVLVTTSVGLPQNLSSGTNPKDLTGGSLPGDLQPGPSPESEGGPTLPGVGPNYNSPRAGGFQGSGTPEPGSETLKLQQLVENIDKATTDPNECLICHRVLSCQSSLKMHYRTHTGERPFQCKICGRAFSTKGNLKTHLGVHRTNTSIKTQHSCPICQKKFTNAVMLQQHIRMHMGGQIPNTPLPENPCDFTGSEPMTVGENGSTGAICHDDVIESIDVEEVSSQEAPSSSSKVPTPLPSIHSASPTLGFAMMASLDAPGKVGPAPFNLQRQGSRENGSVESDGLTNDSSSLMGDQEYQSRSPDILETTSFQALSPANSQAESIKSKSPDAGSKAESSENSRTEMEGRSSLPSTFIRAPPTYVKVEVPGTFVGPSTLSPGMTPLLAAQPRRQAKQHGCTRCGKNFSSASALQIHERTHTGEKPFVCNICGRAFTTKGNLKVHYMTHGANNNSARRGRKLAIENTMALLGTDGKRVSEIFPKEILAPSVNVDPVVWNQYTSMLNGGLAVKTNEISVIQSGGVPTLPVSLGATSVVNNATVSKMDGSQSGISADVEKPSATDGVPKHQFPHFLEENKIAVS
Setting: 8-mer, flanks averaged, mean of replicates
The E-score of `GGTCTCGA` is reported as -0.127.
`AGCTGTGC` gave an E-score of -0.174.
The E-score of `CACTGCCG` is reported as -0.218.
`GCTTCAAA` gave an E-score of 0.0986.
`CAATTTTC` gave an E-score of 0.235.
The E-score of `CCGGATAA` is reported as 0.0392.
`ACTGGCCA` gave an E-score of -0.154.
`ACCTCGCA` has an E-score of -0.0873.

Further values, each from its own experiment
The fold induction of `PhoQ, residues 284 288 289 292 302 303 ALVSVA` is reported as 21.2 (PhoP, residues 12 14 15 18 19 QYCSL (Escherichia coli, UniProt P23836); Sort-seq, measured: YFP reporter; E. coli; PhoQ-PhoP variant library, with: 10 µM Mg2+; reference: high Mg2+ state, higher = stronger signaling).

Excerpt of the above (set 3):
The E-score of `GGTCTCGA` is reported as -0.127.
`AGCTGTGC` gave an E-score of -0.174.
The E-score of `CACTGCCG` is reported as -0.218.
